Earlier results that unrelated publications cite.
Compare with care: the assays were run in different laboratories. ± marks the error that the study gave.
Chrna3/Chrnb2/Chrna6 with beta3 subunit: Chrna3/Chrnb2/Chrna6, with beta3 subunit (Rattus norvegicus, UniProt P04757+P12390+P43143)

By UniProt entry, the sequences of proteins in these tests, tags left out. Residues count along the entry.
UniProt P04757, whole entry, looked up: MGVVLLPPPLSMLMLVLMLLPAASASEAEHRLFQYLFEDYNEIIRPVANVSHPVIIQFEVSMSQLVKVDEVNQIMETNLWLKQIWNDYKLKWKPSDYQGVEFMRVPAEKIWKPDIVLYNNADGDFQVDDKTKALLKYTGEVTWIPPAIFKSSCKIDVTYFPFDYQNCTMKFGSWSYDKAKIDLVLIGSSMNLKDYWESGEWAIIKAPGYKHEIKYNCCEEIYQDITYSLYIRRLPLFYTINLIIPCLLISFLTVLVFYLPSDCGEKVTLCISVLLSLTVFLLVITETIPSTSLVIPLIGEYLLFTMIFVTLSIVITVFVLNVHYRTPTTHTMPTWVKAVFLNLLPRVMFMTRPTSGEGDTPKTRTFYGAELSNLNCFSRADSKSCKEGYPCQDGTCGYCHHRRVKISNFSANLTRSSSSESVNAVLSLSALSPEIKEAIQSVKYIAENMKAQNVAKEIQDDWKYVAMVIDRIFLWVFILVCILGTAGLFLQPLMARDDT
UniProt P12390, whole entry, looked up: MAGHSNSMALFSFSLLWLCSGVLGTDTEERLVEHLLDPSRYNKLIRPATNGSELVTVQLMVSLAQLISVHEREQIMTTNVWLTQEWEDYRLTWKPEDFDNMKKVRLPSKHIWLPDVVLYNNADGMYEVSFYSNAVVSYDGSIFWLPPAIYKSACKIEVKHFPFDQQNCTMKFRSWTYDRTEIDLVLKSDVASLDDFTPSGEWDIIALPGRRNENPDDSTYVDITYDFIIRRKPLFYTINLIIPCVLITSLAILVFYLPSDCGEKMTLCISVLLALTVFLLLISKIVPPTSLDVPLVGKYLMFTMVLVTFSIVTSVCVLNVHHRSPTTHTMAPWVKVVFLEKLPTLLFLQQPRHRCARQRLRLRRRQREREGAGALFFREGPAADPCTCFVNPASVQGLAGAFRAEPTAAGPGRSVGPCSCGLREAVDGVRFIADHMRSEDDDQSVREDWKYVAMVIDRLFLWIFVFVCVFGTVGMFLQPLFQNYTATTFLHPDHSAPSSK
UniProt P43143, whole entry M241L/F253L/V303I/V320I/I327V/A333T/K339T, looked up: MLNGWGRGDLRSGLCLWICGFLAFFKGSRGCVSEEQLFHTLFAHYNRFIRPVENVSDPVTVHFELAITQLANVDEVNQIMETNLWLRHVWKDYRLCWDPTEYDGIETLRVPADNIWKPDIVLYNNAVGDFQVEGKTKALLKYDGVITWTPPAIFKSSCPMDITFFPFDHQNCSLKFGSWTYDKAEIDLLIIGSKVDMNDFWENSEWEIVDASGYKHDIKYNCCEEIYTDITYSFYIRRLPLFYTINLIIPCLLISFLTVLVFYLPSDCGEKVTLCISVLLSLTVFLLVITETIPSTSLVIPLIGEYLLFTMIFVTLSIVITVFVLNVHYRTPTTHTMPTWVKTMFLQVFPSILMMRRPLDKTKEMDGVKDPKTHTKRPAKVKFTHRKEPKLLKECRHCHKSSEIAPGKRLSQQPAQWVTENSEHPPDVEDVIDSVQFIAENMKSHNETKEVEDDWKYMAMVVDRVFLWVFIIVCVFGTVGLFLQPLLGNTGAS
UniProt P41145, whole entry: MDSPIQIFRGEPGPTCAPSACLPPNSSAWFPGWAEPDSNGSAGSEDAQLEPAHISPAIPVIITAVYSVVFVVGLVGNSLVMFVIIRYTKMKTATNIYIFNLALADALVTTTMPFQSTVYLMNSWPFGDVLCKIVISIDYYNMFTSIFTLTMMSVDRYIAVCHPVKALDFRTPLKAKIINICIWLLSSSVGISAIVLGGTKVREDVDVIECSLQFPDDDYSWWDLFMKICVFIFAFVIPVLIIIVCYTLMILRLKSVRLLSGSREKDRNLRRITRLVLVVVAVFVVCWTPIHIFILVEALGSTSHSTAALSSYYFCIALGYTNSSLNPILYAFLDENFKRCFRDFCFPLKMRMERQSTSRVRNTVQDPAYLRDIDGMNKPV
UniProt Q62645, whole entry, looked up: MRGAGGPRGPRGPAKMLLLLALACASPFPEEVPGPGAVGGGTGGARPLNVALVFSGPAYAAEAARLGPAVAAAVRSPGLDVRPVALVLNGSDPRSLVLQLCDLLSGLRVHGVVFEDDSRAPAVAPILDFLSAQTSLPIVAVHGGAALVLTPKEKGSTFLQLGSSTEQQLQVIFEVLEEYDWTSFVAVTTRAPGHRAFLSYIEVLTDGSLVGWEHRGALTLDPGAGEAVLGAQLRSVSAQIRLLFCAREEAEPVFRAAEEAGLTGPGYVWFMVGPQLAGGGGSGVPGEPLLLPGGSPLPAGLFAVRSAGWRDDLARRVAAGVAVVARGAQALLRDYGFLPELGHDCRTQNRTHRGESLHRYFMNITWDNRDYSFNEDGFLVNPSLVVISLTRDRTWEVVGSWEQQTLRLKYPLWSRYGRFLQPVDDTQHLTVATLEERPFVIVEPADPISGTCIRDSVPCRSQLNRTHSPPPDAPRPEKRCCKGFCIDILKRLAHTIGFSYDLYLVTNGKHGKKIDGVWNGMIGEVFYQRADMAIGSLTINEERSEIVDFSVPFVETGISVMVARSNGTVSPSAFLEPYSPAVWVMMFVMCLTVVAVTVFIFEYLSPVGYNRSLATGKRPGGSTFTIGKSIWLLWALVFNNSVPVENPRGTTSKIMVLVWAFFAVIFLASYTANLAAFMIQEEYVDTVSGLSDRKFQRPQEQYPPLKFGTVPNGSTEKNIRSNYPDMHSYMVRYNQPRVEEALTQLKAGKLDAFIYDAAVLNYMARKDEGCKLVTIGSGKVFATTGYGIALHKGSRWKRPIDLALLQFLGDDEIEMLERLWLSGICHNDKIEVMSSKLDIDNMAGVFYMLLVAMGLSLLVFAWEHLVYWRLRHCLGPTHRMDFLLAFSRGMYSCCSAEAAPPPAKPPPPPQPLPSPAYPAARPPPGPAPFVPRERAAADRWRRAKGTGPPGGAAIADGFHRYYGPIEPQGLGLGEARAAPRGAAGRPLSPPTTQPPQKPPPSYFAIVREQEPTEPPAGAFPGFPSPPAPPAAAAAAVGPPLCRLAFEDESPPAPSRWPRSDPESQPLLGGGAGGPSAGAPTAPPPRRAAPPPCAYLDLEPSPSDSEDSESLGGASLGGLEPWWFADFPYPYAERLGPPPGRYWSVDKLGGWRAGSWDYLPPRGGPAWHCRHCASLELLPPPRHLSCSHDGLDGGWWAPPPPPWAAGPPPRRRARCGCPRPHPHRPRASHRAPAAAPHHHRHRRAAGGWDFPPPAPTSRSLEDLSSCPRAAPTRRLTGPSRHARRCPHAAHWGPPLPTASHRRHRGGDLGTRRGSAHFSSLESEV
UniProt A0A0H2ZM50, 1-441: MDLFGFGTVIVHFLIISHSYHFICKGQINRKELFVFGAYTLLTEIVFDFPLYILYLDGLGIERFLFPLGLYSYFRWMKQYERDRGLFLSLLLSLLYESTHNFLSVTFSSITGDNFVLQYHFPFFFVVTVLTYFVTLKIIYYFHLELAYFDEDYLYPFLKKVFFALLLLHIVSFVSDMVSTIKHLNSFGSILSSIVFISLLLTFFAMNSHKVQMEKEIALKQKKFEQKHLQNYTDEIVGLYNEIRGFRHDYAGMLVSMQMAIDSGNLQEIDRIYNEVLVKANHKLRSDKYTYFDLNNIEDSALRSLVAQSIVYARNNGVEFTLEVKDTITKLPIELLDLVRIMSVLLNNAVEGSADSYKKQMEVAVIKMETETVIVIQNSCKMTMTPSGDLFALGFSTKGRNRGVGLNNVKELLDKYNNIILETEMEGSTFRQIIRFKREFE

`NC(=O)[C@H](Cc1ccccc1)NC(=O)[C@H](CCCN=C(N)N)NC(=O)C12CC3CC(CC(C3)C1)C2` gave a Ki of greater than 5000 nM (OPRK1 (Homo sapiens, UniProt P41145); binding).
`CC(=O)SCC[N+](C)(C)C` has a kcat of 652 s⁻¹ (acetylcholinesterase 1 (Anopheles gambiae); substrate).
`NC(=O)c1ccc(-c2cc(C(=O)O)cc(-n3cc(-c4ccc(C(F)(F)F)cc4)nn3)c2)cc1` has an IC50 of greater than 30000 nM (HepG2; cytotoxicity).
The IC50 of `CC(C)[C@@H]1NC(=O)[C@H](CO)NC(=O)[C@@H]2CSSC[C@H](NC(=O)CN)C(=O)N[C@@H](CSSC[C@@H](C(N)=O)NC(=O)[C@H](C)NC(=O)[C@H](CCC(=O)O)NC(=O)[C@@H]3CCCN3C(=O)[C@H](Cc3c[nH]cn3)NC(=O)[C@H](CC(N)=O)NC1=O)C(=O)N[C@@H](CO)C(=O)N[C@@H](Cc1c[nH]cn1)C(=O)N1CCC[C@H]1C(=O)N[C@@H](C)C(=O)N2` is reported as 82.5 nM (Chrna3/Chrnb2/Chrna6 with beta3 subunit; antagonist).
`CCC1(c2ccccc2)C(=O)NC(=O)NC1=O`: “convulsive seizure suppression” “no effect” (rat lithium-pilocarpine status epilepticus; 40 mg/kg, 30 min after SE onset).
Under “doubling concentration improvement”, `COc1ccc(OC[C@H]2c3cccn3CC(=O)N2Cc2cccc(F)c2)cc1` is recorded as 15 fold (Glutamate receptor ionotropic, NMDA 2D, with GluN1 (Rattus norvegicus, UniProt Q62645); positive allosteric modulator; concentration not given; reference: (+)-CIQ).
`CC[C@H](C)[C@H](NC(=O)[C@H](CCCNC(=N)N)NC(=O)[C@H](CCSC)NC(=O)[C@@H](N)CCC(=O)O)C(=O)N[C@@H](CO)C(=O)N[C@@H](CCCNC(=N)N)C(=O)N[C@H](C(=O)N[C@H](C(=O)N[C@@H](CC(C)C)C(=O)N[C@@H](CC(=O)O)C(=O)N[C@@H](Cc1ccccc1)C(=O)N[C@@H](CC(C)C)C(=O)N[C@@H](Cc1ccccc1)C(=O)N[C@@H](CC(C)C)C(=O)N[C@@H](CCCNC(=N)N)C(=O)N[C@@H](CCCCN)C(=O)N[C@@H](CCCCN)C(=O)O)[C@@H](C)CC)[C@@H](C)CC` gave an EC50 of 1650 nM (Competence histidine kinase ComD (Streptococcus pneumoniae serotype 2, UniProt A0A0H2ZM50); reporter gene, agonist; Streptococcus pneumoniae, D39 pcomX::lacZ).
`N#C/C=C/c1ccc2c(S(=O)(=O)n3nc(Nc4ccc(C#N)c(Cl)c4)nc3N)cccc2c1` has an IC50 of 0.26 ± 0.05 nM (HIV; wild type).
`CCCCN1C(=O)C(CC(C)C)NC(=O)C12CCN(Cc1ccc(Oc3ccccc3)cc1)CC2.Cl` (stereo not shown) — result for viral replication: “inhibited” (HIV-1; infectivity and replication; laboratory, clinical, drug-resistant strains).
The ED50 of `O=C1CN=C(c2ccccc2Cl)c2cc([N+](=O)[O-])ccc2N1` is reported as 1.3 mg/kg (convulsive seizures; rat lithium-pilocarpine status epilepticus; 0 min after SE onset).
The IC50 of `CC(C)[C@@H]1CC[C@@H](C)C[C@H]1NC(=O)c1ccc(-c2ccccc2)cc1` is reported as 20 ± 2 nM (rat TRPM8; calcium flux, antagonist; with: menthol 20 µM).
`NC(=O)N1c2ccccc2C=Cc2ccccc21` has an ED50 of 50 mg/kg (convulsive seizures; rat lithium-pilocarpine status epilepticus; 30 min after SE onset).
`CCN1CC(n2nccc2-c2cc(C(F)(F)F)ccc2Oc2ccc(S(=O)(=O)Nc3ncns3)cc2C#N)C1` has a potency ratio of roughly 1000 fold (Nav1.7; reference: inactivated state over closed state).
For `CCCN(CCC)c1c(C#N)cc(S(=O)(=O)Nc2ccccc2)cc1C#N`, the IC50 was 6600 ± 700 nM (tubulin Leishmania tarentolae; tubulin assembly, inhibitor).
`O=[N+]([O-])c1ccccc1O` has an IC50 of 79100 nM (heterotrophic aerobic bacteria; mixed culture).
For `CC(C)C[C@@H]1NC(=O)[C@H](CCC(=O)O)NC(=O)[C@@H]2CCCN2C(=O)[C@H](Cc2c[nH]cn2)NC(=O)[C@H](CC(N)=O)NC(=O)[C@H](C(C)C)NC(=O)[C@H](Cc2c[nH]cn2)NC(=O)[C@@H]2CSSC[C@H](NC(=O)CN)C(=O)N[C@@H](CSSC[C@@H](C(N)=O)NC1=O)C(=O)N[C@@H](CO)C(=O)N[C@@H](Cc1c[nH]cn1)C(=O)N1CCC[C@H]1C(=O)N[C@@H](C)C(=O)N2`, the IC50 was 0.99 nM (Chrna3/Chrnb2/Chrna6 with beta3 subunit; antagonist).
`O=P1(N(CCCl)CCCl)NC(SCCS(=O)(=O)O)CCO1` (stereo not shown) gave a resistance of greater than 35 fold (MCF7/CAT cells; catechol-induced ALDH3A1; reference: MCF7 cells).
`CN1C(=O)CN=C(c2ccccc2)c2cc(Cl)ccc21` — result for “convulsive seizure suppression”: “no effect” (rat lithium-pilocarpine status epilepticus; 10 mg/kg, 30 min after SE onset).
`C=CC(=O)N1C[C@H](c2ccc(Br)cc2)[C@@H]1C(=O)Nc1cccc2cccnc12` has a target engagement of greater than 90% (22Rv1; activity-based protein profiling, refers to: cysteine 271; 20 µM, 3 h; reference: DMSO).
